Published values from different studies.
Each numbered part is a random draw from the data of one study; scales do not carry over between parts. Changes are numbered by the printed parent chain.
Chain of UniProt Q07002 (whole entry, looked up): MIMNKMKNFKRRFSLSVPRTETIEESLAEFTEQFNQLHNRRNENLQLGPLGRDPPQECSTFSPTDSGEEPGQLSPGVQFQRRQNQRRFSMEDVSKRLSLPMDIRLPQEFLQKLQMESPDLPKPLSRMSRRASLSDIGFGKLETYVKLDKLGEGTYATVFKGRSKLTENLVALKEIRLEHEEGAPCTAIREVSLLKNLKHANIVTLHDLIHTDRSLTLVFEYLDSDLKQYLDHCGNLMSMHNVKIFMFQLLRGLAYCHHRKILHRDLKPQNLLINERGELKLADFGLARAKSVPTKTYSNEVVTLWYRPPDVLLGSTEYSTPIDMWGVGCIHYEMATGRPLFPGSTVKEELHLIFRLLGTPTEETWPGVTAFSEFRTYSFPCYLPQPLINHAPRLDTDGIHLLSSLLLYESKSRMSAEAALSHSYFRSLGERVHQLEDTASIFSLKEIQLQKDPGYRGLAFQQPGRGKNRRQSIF
Chain of UniProt O14936 (whole entry, looked up): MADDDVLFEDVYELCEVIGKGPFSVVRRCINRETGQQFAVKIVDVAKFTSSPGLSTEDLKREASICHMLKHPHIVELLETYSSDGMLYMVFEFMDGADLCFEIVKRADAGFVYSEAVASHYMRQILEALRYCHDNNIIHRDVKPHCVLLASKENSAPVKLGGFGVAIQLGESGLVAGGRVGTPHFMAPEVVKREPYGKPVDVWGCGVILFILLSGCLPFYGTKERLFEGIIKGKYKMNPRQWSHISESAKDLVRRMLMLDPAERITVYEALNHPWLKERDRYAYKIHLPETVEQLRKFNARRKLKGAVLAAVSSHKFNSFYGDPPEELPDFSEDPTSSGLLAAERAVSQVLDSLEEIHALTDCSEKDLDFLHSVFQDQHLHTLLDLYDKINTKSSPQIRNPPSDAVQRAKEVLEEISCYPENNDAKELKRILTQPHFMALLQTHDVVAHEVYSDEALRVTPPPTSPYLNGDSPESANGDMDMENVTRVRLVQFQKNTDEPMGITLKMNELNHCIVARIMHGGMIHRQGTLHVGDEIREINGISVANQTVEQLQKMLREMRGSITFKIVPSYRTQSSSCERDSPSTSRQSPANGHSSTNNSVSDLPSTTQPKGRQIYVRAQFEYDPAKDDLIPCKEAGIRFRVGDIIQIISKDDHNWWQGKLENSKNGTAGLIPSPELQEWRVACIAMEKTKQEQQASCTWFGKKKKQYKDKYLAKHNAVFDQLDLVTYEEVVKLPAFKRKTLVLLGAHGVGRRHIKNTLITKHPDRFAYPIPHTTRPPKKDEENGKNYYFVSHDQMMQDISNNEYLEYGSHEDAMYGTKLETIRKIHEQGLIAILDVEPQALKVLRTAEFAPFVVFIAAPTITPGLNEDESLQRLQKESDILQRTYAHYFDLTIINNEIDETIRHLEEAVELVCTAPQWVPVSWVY
Chain of UniProt P29322 (whole entry, looked up): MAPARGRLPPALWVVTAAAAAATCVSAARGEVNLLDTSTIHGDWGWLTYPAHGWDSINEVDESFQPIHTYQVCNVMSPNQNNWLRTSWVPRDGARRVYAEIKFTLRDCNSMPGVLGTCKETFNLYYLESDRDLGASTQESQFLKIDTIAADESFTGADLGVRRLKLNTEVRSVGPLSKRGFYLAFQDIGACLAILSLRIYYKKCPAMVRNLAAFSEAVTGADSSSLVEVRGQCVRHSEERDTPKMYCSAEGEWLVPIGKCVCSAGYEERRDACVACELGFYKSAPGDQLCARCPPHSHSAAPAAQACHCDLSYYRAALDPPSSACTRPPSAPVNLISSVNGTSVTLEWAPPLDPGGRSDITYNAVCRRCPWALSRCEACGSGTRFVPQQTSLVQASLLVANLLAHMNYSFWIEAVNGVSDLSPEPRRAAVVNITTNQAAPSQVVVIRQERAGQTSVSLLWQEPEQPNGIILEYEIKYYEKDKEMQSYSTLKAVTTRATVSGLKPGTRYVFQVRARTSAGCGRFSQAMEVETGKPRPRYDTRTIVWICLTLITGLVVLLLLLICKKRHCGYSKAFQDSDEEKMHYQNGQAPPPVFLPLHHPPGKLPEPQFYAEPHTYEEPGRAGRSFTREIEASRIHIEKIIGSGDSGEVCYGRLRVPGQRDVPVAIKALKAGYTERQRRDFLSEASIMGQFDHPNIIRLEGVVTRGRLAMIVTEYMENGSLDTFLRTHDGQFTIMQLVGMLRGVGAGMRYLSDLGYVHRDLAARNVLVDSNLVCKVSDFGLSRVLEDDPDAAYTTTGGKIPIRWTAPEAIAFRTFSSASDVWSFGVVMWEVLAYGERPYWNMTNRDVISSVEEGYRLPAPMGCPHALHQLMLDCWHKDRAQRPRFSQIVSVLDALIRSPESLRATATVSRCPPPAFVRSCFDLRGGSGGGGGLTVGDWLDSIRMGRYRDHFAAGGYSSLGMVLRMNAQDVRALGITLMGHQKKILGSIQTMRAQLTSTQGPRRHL
Chain of UniProt Q9Y6E0 (whole entry, looked up): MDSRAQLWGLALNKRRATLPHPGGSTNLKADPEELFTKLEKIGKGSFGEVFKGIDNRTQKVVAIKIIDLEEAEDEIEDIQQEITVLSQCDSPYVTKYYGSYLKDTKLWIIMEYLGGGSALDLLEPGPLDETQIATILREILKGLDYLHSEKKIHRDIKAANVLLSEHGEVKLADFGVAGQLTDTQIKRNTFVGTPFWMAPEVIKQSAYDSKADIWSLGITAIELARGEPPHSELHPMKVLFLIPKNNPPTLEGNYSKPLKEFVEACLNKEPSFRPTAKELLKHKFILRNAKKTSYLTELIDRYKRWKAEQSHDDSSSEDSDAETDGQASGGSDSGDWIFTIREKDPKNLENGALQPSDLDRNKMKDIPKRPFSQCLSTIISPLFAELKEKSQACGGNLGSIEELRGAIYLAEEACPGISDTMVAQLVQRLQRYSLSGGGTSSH
Chain of UniProt Q05397 (whole entry, looked up): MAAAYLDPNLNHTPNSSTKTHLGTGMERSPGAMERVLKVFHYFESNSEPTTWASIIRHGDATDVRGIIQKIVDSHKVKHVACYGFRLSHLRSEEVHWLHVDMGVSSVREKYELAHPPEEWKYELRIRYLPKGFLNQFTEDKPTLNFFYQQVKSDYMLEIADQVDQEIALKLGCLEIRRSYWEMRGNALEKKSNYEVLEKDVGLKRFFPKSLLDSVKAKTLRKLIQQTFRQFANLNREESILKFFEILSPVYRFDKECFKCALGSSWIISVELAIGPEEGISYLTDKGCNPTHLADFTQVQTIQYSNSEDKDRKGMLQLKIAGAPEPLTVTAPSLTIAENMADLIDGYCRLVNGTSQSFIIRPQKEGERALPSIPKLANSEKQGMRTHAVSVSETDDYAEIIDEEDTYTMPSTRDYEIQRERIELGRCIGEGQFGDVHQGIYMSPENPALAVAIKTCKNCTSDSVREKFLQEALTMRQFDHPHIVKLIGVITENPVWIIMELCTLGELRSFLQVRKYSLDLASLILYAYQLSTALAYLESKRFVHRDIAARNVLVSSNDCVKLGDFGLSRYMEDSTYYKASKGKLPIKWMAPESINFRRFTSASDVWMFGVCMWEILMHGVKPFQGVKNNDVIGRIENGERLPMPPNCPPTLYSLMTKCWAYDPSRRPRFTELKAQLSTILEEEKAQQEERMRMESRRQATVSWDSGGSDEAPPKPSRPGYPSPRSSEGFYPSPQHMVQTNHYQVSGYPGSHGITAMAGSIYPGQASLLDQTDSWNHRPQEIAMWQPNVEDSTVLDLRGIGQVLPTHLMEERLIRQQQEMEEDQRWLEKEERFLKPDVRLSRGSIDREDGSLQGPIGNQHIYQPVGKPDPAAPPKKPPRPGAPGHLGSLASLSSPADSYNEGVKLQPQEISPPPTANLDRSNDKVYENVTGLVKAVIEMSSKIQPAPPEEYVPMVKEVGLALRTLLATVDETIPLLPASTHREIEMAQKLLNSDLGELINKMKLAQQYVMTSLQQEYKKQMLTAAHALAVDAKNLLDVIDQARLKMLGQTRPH
Chain of UniProt P46734 (whole entry, looked up): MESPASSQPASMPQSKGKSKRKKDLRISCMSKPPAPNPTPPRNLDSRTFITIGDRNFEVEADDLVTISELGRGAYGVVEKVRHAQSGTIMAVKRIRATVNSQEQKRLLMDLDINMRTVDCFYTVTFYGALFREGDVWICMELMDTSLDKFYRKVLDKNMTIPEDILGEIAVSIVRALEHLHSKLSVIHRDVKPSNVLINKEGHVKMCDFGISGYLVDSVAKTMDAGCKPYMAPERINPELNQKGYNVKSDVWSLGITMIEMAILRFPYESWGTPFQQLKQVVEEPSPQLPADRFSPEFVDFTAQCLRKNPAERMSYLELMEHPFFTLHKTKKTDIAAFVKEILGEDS
Chain of UniProt P51813 (whole entry, looked up): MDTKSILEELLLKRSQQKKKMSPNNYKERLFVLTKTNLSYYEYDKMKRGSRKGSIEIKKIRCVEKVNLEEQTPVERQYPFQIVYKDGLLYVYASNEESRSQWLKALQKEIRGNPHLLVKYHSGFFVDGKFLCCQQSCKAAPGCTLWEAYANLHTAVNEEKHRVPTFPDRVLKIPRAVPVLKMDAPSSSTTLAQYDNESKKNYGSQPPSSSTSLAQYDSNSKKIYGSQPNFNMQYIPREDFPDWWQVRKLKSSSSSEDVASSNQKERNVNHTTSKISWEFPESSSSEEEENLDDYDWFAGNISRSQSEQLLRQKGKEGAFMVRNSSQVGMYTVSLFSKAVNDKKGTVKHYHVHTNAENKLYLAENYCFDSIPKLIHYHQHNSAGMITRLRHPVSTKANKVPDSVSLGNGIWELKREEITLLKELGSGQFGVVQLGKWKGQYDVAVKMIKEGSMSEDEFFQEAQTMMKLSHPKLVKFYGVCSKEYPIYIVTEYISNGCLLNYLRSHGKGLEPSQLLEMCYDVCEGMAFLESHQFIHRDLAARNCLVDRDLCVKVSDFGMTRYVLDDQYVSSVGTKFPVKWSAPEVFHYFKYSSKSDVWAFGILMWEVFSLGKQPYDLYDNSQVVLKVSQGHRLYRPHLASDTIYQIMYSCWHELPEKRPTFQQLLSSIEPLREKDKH

Series 1
SMILES: CS(=O)(=O)N1CCCC(NC(=O)[C@H](CCC2CCCCC2)NC(=O)c2ccc(CNc3ncnc4c3nnn4-c3ccccc3)cc2)C1 (stereo partly drawn)
Effect on: cell-free assay
Method: competition with immobilised ligand
Tested at: 0.1 µM
For HIPK3 (Homo sapiens, UniProt Q9H422): remaining binding read 100%.
It gave 79% for remaining binding (BMX (Homo sapiens, UniProt P51813)).
It gave 100% for remaining binding (CDK18 (Homo sapiens, UniProt Q07002)).
The remaining binding was 100% (STK24 (Homo sapiens, UniProt Q9Y6E0)).
For MAP4K1 (Homo sapiens, UniProt Q92918): remaining binding read 100%.
The remaining binding was 81% (FLT4 (Homo sapiens, UniProt P35916)).
For EPHA8 (Homo sapiens, UniProt P29322): remaining binding read 100%.
It gave 100% for remaining binding (CASK (Homo sapiens, UniProt O14936)).
The remaining binding was 100% (ROCK2 (Homo sapiens, UniProt O75116)).
It gave 85% for remaining binding (MAP2K3 (Homo sapiens, UniProt P46734)).
The remaining binding was 100% (PTK2 (Homo sapiens, UniProt Q05397)).
CIT (Homo sapiens, UniProt O14578) — remaining binding: 98%.
It gave 93% for remaining binding (CAMK2D (Homo sapiens, UniProt Q13557)).
For Non-receptor tyrosine-protein kinase TYK2, JH2 (TYK2, Homo sapiens, UniProt P29597): remaining binding read 100%.

Series 2
Target: RNA binding protein fox-1 homolog 2, RRM domain, GST-SBP tag (RBFOX2, Homo sapiens, UniProt O43251-10, residues 100-194)
Method: RNA Bind-n-Seq
Form: RNA
Sample: in vitro
Tested at: 365 nM
Notes: natural RNA segment, single round, ends assumed
Relative to: no-protein control
Reading: higher = stronger binding
Shared flanks, not repeated: GGGAGUUCUACAGUCCGACGAUC … UGGAAUUCUCGGGUGCCAA
`AGCCUCCCAAGCAACACACUAUGGGGGAGAGGGGGUGUCAAGAAACUCCAGCUCACACAUCUACCCAAGAUGCUUGGGGUUCUCUUUUUUCAUCUGAUUAUGUUAGGCCC` — result for “RBNS enrichment (R)”: 0.391.
`AGGAAAGAAUUACAGUUGGACUGAUUGUGACAGUGCCUUGUCGUCCUCUUUGAAACACCCCGUGUUGUCCAGUAUACCUUAUAACACUGAGCCACUUCUCCCCACCCUCC`: “RBNS enrichment (R)” 0.933.
`AGUUCAAAAGUCAGGUGCUGAGAGAUGGUUUAAAGACAAAUUCAUGAAGGUAUAUUUUGUGUUAUAGUUGUUGAUGAGUUCUUUGGUUUUCUGUAUUUUUCCCCCUCUCU` — result for “RBNS enrichment (R)”: 0.399.
For `AGCAGCAGUGGUGGCAGCCCCCCCCACAGCUGUGGGCUCCCUCUCUGGGGCAGAGGGGGUACCAGUGAGCUCUCAGCCACUUCCCUCCCAGCCUUGGUGAGCUCCAAGUU`, “RBNS enrichment (R)” read 0.488.
For `ACCUACGUACUUAUAUCAGCACCAUGUAUGUAGGUGUGAUAGUACUUUCAAACAGCGCCUCCACCUGGCCUACUCUGUUAUUUCCACCUGUUUGGGUAGGGCCAUUUAAC`, “RBNS enrichment (R)” read 1.24.
Under “RBNS enrichment (R)”, `UUCCCUAAACUCUUGACACCCCCAGAGGGGUUGAGAUUGUUGUGUGAGUAGGGGGGGGGGGGGAACGGCCUUGCGGAGGCCACCAUAGAACCGUCCUAAUUUUUCAUAGA` is recorded as 0.412.
`AAAACUGUAGAAUAGAUAUUUUUAAGGCUAUAUGUAGUGUAUGUGUCUUUUAAUAGAUAUAGGCAUCUGUUCAUCCACAUUUGAACACAGAGCUAAAGAAACGUUUUUUA`: “RBNS enrichment (R)” 0.809.
For `GUGUCCCGGGACUCUUUCCGUUCAUUGUUUGCUUUUUUGGCAACUAGGAGGUUGGCACUAAGACCCAGGACAAUGUUACUUCUCUGUGAUGUGUGGUGACUUCCCUCUGC`, “RBNS enrichment (R)” read 0.69.

Series 3
Target: Mitogen-activated protein kinase kinase kinase 2 (MAP3K2, Homo sapiens, UniProt Q9Y2U5)
Effect on: enzyme activity
Action: inhibitor
Tested at: 0.5 µM
Relative to: control
Residues (Q9Y2U5 1-619): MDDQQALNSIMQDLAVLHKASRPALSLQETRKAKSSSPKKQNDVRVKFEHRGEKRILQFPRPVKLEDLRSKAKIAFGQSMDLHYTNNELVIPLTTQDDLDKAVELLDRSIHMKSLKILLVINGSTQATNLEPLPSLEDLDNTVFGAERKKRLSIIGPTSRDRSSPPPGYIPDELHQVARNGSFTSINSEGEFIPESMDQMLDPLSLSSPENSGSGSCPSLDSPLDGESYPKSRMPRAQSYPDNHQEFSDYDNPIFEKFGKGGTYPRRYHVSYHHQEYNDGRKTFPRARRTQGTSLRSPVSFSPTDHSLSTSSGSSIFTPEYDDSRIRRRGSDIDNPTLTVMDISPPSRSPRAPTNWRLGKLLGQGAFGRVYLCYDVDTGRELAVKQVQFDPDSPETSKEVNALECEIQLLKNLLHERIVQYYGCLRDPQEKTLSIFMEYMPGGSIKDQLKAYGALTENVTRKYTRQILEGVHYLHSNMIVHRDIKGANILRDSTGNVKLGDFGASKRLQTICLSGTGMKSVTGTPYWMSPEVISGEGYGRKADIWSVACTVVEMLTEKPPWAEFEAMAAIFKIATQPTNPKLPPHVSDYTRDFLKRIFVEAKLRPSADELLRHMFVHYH
CCOC(=O)c1c(C)[nH]c(/C=C2\C(=O)Nc3ccccc32)c1C has a remaining activity of 108%.
For Nc1[nH]nc2nc3ccccc3nc12, the remaining activity was 92.6%.
N#CC(C#N)=C(N)/C(C#N)=C/c1ccc(O)cc1 gave a remaining activity of 102%.
With O=C(CCCc1ccc(-c2ccccc2F)cc1)Nc1ccc(O)cc1 the remaining activity was 89.1%.
With COc1ccc(OC)c2c(=S)c3ccccc3[nH]c12 the remaining activity was 101%.
Cc1ccc(NC(=O)c2ccc(CN3CCN(C)CC3)cc2)cc1Nc1nc(-c2cccnc2)cs1 has a remaining activity of 102%.
For CO[C@H]1C[C@@H]2CC[C@@H](C)[C@@](O)(O2)C(=O)C(=O)N2CCCC[C@H]2C(=O)O[C@H]([C@H](C)C[C@@H]2CC[C@@H](O)[C@H](OC)C2)CC(=O)[C@H](C)/C=C(\C)[C@@H](O)[C@@H](OC)C(=O)[C@H](C)C[C@H](C)/C=C/C=C/C=C/1C, the remaining activity was 94.8%.
CNC(=O)c1cc(Oc2ccc(NC(=O)Nc3ccc(Cl)c(C(F)(F)F)c3)cc2)ccn1 gave a remaining activity of 109%.
NCCNc1ncc(C(N)=O)c(Nc2cccc(C(F)(F)F)c2)n1 gave a remaining activity of 87%.
Oc1ccc(-c2nc(-c3ccncc3)c(-c3ccc(F)cc3)[nH]2)cc1 gave a remaining activity of 95%.
The remaining activity of C#Cc1cccc(Nc2ncnc3cc(OCCOC)c(OCCOC)cc23)c1 is reported as 117%.
COc1cc2ncnc(Nc3ccc(F)c(Cl)c3)c2cc1OCCCN1CCOCC1 gave a remaining activity of 109%.
For Nc1ncnc2n[nH]c(Nc3ccc(F)cc3)c12, the remaining activity was 95.6%.
The remaining activity of O=C(O)c1ccc2c3c1cccc3c(=O)n1c3ccccc3nc21 is reported as 90.7%.
The remaining activity of CN(C)c1ccc(C=C2C(=O)Nc3ccccc32)cc1 is reported as 99.8%.

Series 4
Target: ABI1, truncated, D143A, DHFR fusion (Arabidopsis thaliana, UniProt P49597)
Method: DHFR PCA, dose-response
Sample: yeast
Notes: Hill fit, not affinity, not high confidence
With: (+)-ABA, dose series
Reading: lower = more sensitive
Starting sequence: PYL1, truncated, DHFR fusion (Arabidopsis thaliana, UniProt Q8VZS8); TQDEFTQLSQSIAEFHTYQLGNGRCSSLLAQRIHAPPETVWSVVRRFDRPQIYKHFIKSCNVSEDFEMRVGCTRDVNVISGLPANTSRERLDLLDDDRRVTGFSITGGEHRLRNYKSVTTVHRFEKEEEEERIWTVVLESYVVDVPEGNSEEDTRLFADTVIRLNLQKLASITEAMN
`C25I` has an ABA EC50 of 21.5 µM.
`W41I` has an ABA EC50 of 0.0257 µM.
For `A158K`, the ABA EC50 was 4.07 µM.
With `F56D` the ABA EC50 was 2.37 µM.
For `H110V`, the ABA EC50 was 267 µM.
With `G81F` the ABA EC50 was 217 µM.
For `L112S`, the ABA EC50 was 8.63 µM.
The ABA EC50 of `R163P` is reported as 4.33 µM.

For quick reference, copied from above (series 3):
With COc1ccc(OC)c2c(=S)c3ccccc3[nH]c12 the remaining activity was 101%.
Cc1ccc(NC(=O)c2ccc(CN3CCN(C)CC3)cc2)cc1Nc1nc(-c2cccnc2)cs1 has a remaining activity of 102%.
For CO[C@H]1C[C@@H]2CC[C@@H](C)[C@@](O)(O2)C(=O)C(=O)N2CCCC[C@H]2C(=O)O[C@H]([C@H](C)C[C@@H]2CC[C@@H](O)[C@H](OC)C2)CC(=O)[C@H](C)/C=C(\C)[C@@H](O)[C@@H](OC)C(=O)[C@H](C)C[C@H](C)/C=C/C=C/C=C/1C, the remaining activity was 94.8%.
CNC(=O)c1cc(Oc2ccc(NC(=O)Nc3ccc(Cl)c(C(F)(F)F)c3)cc2)ccn1 gave a remaining activity of 109%.
